Values quoted from earlier work, collected from citations in different studies.
Each line is one published result; not all experiments were run side by side. Numbers after ± are the reported error.

For NC1Cc2cc3c(cc2C1)OCO3, the IC50 was 1430 nM (noradrenaline transporter; [3H]noradrenaline uptake; synaptosomes).
With CCCC(C(=O)c1ccc2c(c1)OCO2)N1CCCC1 (stereo not shown) the IC50 was 3350 ± 305 nM (serotonin transporter, rat; serotonin uptake, inhibitor; brain synaptosomes).
With CCCC(C(=O)c1ccc2c(c1)OCO2)N1CCCC1 (stereo not shown) the IC50 was 135 nM (human dopamine transporter; dopamine uptake, inhibitor; hDAT-expressing cells).
With CN1CC[C@]23c4c5ccc(O)c4O[C@H]2c2ncccc2C[C@@]3(O)[C@H]1C5 the IC50 was 523 nM (mu opioid receptor guinea pig; muscle contraction, agonist; isolated guinea pig ileum).
With COC(=O)[C@H](c1ccc(F)cc1)[C@H]1CCCCN1 (racemic) the IC50 was 142 nM (dopamine transporter, rat; dopamine uptake, inhibitor; rat brain synaptosomes; with: [3H]dopamine).
With CNC(C)C(=O)c1ccc(I)cc1 (stereo not shown) the IC50 was 1000 nM (SERT; uptake).
For CCCC(C(=O)c1ccc(O)c(O)c1)N1CCCC1 (stereo not shown), the IC50 was 11 ± 1 nM (dopamine transporter, rat; dopamine uptake, inhibitor; brain synaptosomes).
The IC50 of CNC(C)C(=O)c1ccc(Br)cc1 (stereo not shown) is reported as 1800 nM (SERT; uptake).
For CNC(C)C(=O)c1ccc2c(c1)OCO2 (stereo not shown), the IC50 was 1030 ± 162 nM (norepinephrine transporter, rat; norepinephrine uptake, inhibitor; brain synaptosomes).
c1ccc(C2(N3CCCCC3)CCCCC2)cc1 has an IC50 of 20000 to 30000 nM (muscle nicotinic acetylcholine receptor; inhibitor; holding potential -60 mV).
